Measurements gathered from unrelated publications.
Protocols differ between the studies behind these lines. ± gives the spread as reported.

CCCC[C@H](NC(=O)CNC(=O)CNC(=O)c1ccc(NN)nc1)C(=O)N[C@H]1CC(=O)NCCCC[C@@H](C(N)=O)NC(=O)[C@H](Cc2c[nH]c3ccccc23)NC(=O)[C@H](CCCNC(=N)N)NC(=O)[C@@H](Cc2ccccc2)NC(=O)[C@H](Cc2c[nH]cn2)NC1=O [technetium-99m labelled]
tissue uptake (C57 mouse, B16/F1 melanoma-bearing, spleen; intravenous, 4 h): 0.2 ± 0.18 %ID/g

CCCC[C@H](NC(=O)CCCCCCCNC(=O)c1ccc(NN)nc1)C(=O)N[C@H]1CC(=O)NCCCC[C@@H](C(N)=O)NC(=O)[C@H](Cc2c[nH]c3ccccc23)NC(=O)[C@H](CCCNC(=N)N)NC(=O)[C@@H](Cc2ccccc2)NC(=O)[C@H](Cc2c[nH]cn2)NC1=O [technetium-99m labelled]
uptake (C57 mouse, B16/F1 melanoma, spleen; intravenous, 24 h): 0.05 ± 0.04 %ID/g

N=C(N)NCCC[C@@H]1NC(=O)[C@H](CCCCNC(=O)CNC(=O)CNC(=O)CNC(=O)CC[C@H](NC(=O)CCOCCOCCOCCOCCNC(=O)CC[C@H](NC(=O)CN2CCN(CC(=O)O)CCN(CC(=O)O)CCN(CC(=O)O)CC2)C(=O)NCCOCCOCCOCCOCCC(=O)N[C@@H](CCC(=O)NCC(=O)NCC(=O)NCC(=O)NCCCC[C@@H]2NC(=O)[C@@H](Cc3ccccc3)NC(=O)[C@H](CC(=O)O)NC(=O)CNC(=O)[C@H](CCCNC(=N)N)NC2=O)C(=O)NCC(=O)NCC(=O)NCC(=O)NCCCC[C@@H]2NC(=O)[C@@H](Cc3ccccc3)NC(=O)[C@H](CC(=O)O)NC(=O)CNC(=O)[C@H](CCCNC(=N)N)NC2=O)C(=O)NCC(=O)NCC(=O)NCC(=O)NCCCC[C@@H]2NC(=O)[C@@H](Cc3ccccc3)NC(=O)[C@H](CC(=O)O)NC(=O)CNC(=O)[C@H](CCCNC(=N)N)NC2=O)NC(=O)[C@@H](Cc2ccccc2)NC(=O)[C@H](CC(=O)O)NC(=O)CNC1=O [indium-111 labelled]
tissue uptake (female athymic nude mice, spleen; intravenous, 3 µCi, 0.5 h, U-87 MG glioma xenograft): 2.97 ± 0.61 %ID/g

CCCC[C@H](NC(=O)CNC(=O)CNC(=O)CNC(=O)c1ccc(NN)nc1)C(=O)N[C@H]1CC(=O)NCCCC[C@@H](C(N)=O)NC(=O)[C@H](Cc2c[nH]c3ccccc23)NC(=O)[C@H](CCCNC(=N)N)NC(=O)[C@@H](Cc2ccccc2)NC(=O)[C@H](Cc2c[nH]cn2)NC1=O [technetium-99m labelled]
uptake (C57 mouse, B16/F1 melanoma, brain; intravenous, 2 h): 0.05 ± 0.03 %ID/g

CSCC[C@H](NC(=O)[C@H](CC(C)C)NC(=O)[C@H](Cc1c[nH]cn1)NC(=O)CNC(=O)[C@@H](NC(=O)[C@H](C)NC(=O)[C@H](Cc1c[nH]c2ccccc12)NC(=O)[C@H](CCC(N)=O)NC(=O)CCCCCNC(=O)CN1CCN(CC(=O)O)CCN(CC(=O)O)CC1)C(C)C)C(N)=O [gallium-68 labelled]
metabolite share (radio-HPLC; fetal bovine serum; 120 min, 37 °C): 10.8%

N=C(N)NCCC[C@@H]1NC(=O)[C@H](CCCCNC(=O)CC[C@H](NC(=O)CCOCCOCCOCCOCCNC(=O)CN2CCN(CC(=O)O)CCN(CC(=O)O)CCN(CC(=O)O)CC2)C(=O)NCCCC[C@@H]2NC(=O)[C@@H](Cc3ccccc3)NC(=O)[C@H](CC(=O)O)NC(=O)CNC(=O)[C@H](CCCNC(=N)N)NC2=O)NC(=O)[C@@H](Cc2ccccc2)NC(=O)[C@H](CC(=O)O)NC(=O)CNC1=O [indium-111 labelled]
tumour to tissue ratio (athymic nude mice, female, U-87 MG glioma xenograft, tumour and kidney; intravenous, 72 h; relative to: tumour over kidney): 1.08 ± 0.14

CSCC[C@H](NC(=O)[C@H](CC(C)C)NC(=O)[C@H](Cc1c[nH]cn1)NC(=O)CNC(=O)[C@@H](NC(=O)[C@H](C)NC(=O)[C@H](Cc1c[nH]c2ccccc12)NC(=O)[C@H](CCC(N)=O)NC(=O)CCCCCNC(=O)CNC(=O)CNC(=O)CNC(=O)CSC(C)=O)C(C)C)C(N)=O [technetium-99m labelled]
tissue uptake (Swiss mouse, liver; intravenous, 18.5 MBq, 5 min): 10.1 ± 2.18 %ID/g

N=C(N)NCCC[C@@H]1NC(=O)[C@H](CCCCNC(=O)CCOCCOCCOCCOCCNC(=O)CN2CCN(CC(=O)O)CCN(CC(=O)O)CCN(CC(=O)O)CC2)NC(=O)[C@@H](Cc2ccccc2)NC(=O)[C@H](CC(=O)O)NC(=O)CNC1=O [indium-111 labelled]
tissue uptake (female athymic nude mice, kidney; intravenous, 3 µCi, 24 h, U-87 MG glioma xenograft): 1.92 ± 0.16 %ID/g

CC[C@@]1(O)C(=O)OCc2c1cc1n(c2=O)Cc2cc3cc(OC(=O)CCCC(=O)NCC(=O)N[C@@H](Cc4ccccc4)C(=O)N[C@@H](Cc4ccccc4)C(=O)N[C@@H](Cc4ccc(O)cc4)C(=O)NCCS)ccc3nc2-1
nanofibre size (TEM and AFM; PBS; 100 µM, pH 7.4, added: alkaline phosphatase then GSH 400 µM): 4 to 9 nm

Excerpt of the above:
CCCC[C@H](NC(=O)CCCCCCCNC(=O)c1ccc(NN)nc1)C(=O)N[C@H]1CC(=O)NCCCC[C@@H](C(N)=O)NC(=O)[C@H](Cc2c[nH]c3ccccc23)NC(=O)[C@H](CCCNC(=N)N)NC(=O)[C@@H](Cc2ccccc2)NC(=O)[C@H](Cc2c[nH]cn2)NC1=O [technetium-99m labelled]
uptake (C57 mouse, B16/F1 melanoma, spleen; intravenous, 24 h): 0.05 ± 0.04 %ID/g
